{"data": "Published values from different studies", "SLCO1B3": "Solute carrier organic anion transporter family member 1B3 (SLCO1B3, Homo sapiens, UniProt Q9NPD5)", "CYP3A4": "Cytochrome P450 3A4 (CYP3A4, Homo sapiens, UniProt P08684)", "ABCG2": "Broad substrate specificity ATP-binding cassette transporter ABCG2 (ABCG2, Homo sapiens, UniProt Q9UNQ0)", "note": "Each line is one published result; not all experiments were run side by side. Numbers after ± are the reported error.", "sequence of UniProt Q9UNQ0 (whole entry, looked up)": "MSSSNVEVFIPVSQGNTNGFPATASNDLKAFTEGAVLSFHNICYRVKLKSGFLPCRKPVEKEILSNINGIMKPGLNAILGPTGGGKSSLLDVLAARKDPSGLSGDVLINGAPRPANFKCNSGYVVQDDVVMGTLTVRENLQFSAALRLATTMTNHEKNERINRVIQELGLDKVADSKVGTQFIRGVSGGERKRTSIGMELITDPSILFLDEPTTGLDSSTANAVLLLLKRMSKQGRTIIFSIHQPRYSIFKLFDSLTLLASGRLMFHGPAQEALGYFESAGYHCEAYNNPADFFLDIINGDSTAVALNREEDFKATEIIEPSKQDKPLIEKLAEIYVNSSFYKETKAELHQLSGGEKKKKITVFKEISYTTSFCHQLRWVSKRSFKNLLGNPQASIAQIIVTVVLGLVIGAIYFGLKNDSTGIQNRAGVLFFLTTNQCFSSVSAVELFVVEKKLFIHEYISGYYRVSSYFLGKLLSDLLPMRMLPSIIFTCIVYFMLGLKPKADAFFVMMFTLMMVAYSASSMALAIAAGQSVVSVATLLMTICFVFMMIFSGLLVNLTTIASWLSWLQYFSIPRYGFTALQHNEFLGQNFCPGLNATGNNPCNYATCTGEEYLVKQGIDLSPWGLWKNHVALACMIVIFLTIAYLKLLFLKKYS", "sequence of UniProt P08684 (whole entry, looked up)": "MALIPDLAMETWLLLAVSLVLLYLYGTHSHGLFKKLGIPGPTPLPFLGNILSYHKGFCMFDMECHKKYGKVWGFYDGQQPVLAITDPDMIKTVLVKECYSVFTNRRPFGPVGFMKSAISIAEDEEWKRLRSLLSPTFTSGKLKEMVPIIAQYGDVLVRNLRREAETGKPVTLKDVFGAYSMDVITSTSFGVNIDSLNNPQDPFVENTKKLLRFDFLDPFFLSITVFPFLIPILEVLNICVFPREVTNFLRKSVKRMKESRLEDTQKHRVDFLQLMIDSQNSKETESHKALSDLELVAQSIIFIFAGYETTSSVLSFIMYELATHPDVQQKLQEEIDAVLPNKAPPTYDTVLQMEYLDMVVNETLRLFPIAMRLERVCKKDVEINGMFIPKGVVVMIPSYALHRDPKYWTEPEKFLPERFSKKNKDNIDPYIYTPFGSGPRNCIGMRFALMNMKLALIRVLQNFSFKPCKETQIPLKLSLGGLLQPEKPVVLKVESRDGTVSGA", "sequence of UniProt Q9NPD5 (whole entry, looked up)": "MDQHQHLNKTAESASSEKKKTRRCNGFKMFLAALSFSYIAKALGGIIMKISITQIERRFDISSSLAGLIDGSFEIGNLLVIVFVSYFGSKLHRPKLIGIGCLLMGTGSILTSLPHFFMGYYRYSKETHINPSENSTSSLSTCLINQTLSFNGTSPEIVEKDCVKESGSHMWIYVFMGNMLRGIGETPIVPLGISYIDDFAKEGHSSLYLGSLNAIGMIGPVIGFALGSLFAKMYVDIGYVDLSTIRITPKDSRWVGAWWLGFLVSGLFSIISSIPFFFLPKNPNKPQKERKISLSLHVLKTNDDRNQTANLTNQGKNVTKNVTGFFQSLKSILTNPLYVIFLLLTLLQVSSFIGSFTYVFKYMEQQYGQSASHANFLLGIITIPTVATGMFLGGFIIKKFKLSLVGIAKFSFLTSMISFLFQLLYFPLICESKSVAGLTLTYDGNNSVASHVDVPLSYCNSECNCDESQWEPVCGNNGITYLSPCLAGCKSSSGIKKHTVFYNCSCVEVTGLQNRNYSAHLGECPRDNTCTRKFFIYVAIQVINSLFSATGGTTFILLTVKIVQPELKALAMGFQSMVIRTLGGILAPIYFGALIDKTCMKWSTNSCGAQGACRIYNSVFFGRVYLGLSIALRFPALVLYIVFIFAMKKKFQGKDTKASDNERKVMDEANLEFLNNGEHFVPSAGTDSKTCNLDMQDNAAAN", "sequence of UniProt O15439 (whole entry, looked up)": "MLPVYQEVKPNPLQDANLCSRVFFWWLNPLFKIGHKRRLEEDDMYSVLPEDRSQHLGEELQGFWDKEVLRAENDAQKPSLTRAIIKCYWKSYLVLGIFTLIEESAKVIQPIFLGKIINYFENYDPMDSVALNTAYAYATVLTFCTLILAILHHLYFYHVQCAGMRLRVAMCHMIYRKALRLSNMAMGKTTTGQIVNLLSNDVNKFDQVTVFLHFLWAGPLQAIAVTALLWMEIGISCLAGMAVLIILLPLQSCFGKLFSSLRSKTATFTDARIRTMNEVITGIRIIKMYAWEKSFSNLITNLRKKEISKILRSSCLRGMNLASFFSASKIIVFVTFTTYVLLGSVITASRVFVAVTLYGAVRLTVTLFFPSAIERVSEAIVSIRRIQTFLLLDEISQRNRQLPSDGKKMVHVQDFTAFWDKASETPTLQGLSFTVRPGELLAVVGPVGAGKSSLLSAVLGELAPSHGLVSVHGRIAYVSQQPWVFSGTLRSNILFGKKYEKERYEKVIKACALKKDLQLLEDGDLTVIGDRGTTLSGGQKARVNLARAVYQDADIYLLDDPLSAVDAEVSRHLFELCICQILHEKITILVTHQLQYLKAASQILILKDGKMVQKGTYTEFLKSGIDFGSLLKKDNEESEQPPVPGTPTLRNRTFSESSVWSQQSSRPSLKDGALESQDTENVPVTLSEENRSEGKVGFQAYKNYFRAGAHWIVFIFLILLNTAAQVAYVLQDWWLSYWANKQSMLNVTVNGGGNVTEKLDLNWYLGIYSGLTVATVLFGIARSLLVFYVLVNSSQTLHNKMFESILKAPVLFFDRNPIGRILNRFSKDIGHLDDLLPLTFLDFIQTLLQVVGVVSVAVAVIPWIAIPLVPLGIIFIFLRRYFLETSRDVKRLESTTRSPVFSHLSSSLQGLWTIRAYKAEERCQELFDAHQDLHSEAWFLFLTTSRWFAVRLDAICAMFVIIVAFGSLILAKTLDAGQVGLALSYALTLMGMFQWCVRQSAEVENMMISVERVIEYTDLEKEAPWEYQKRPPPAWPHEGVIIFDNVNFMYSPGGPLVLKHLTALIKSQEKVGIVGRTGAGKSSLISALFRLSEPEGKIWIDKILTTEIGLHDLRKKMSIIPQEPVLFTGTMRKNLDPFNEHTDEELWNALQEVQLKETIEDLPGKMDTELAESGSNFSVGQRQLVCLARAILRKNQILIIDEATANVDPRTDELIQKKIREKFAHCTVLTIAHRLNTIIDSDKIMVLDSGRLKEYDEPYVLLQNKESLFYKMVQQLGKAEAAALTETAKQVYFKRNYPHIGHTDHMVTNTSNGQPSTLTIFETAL"}
{"SMILES": "Cc1cc(-c2ccc3ccccc3c2)nnc1NCCN1CCN(C)CC1", "target": "SLCO1B3", "test": "transport", "setting": "concentration not given", "measurement": "inhibition", "result": "negative"}
{"SMILES": "CNC(=O)C1CCCN(C(=O)C2CC3CCC2N3C(=O)[C@@H]2C[C@@H](O)CN2C(=O)NCc2cccc(Cl)c2F)C1 (mixture of isomers)", "target": "CYP3A4 (human)", "test": "inhibitor, time-dependent inhibition", "setting": "16.7 µM, preincubated with NADPH, added: midazolam substrate", "how to read": "relative to: negative control", "measurement": "remaining activity", "result": "100%"}
{"SMILES": "CC(C)=CCC/C(C)=C\\CCn1cc(CC(C)(P(=O)(O)O)P(=O)(O)O)nn1", "target": "SLCO1B3", "test system": "OATP1B3-transfected cells", "setting": "50 µM, 5 min, pH 7.4", "how to read": "relative to: mock-transfected cells", "measurement": "cellular uptake", "result": "1.5 fold"}
{"SMILES": "CN[C@@H]1[C@H](O)[C@H](NC)[C@H]2O[C@]3(O)[C@H](O[C@@H]2[C@H]1O)O[C@H](C)C[C@H]3NC(=O)Cc1cc(Cl)ccn1", "target": "CYP3A4", "setting": "10 µM", "measurement": "inhibition", "result": "4%"}
{"SMILES": "CCN(CC)CCOc1ccc(-c2nnn(Cc3ccc(OC)cc3)c2N)cc1", "target": "SLC22A6 (Homo sapiens, UniProt Q4U2R8)", "test": "transporter uptake, inhibitor", "measurement": "IC50", "result": "> 100 µM"}
{"SMILES": "CCCCCCCCCCCC(=O)C(C)C(=O)N1CCC[C@H]1C(=O)NC(C)(C)C(=O)NC(C)(C)C(=O)NC(C)(C)C(=O)N[C@](C)(CC)C(=O)NCCC(=O)N[C@@H](C)C(=O)N[C@](C)(CC)C(=O)N[C@@H](C)C(=O)N[C@@H](CC(C)C)C(=O)N[C@](C)(CC)C(=O)NCCC(=O)N[C@@H](C)C(=O)N[C@](C)(CC)C(=O)NCCC(=O)N[C@@H](C)C(=O)NC(C)(C)C(=O)NC(C)(C)C(=O)NC(C)(C)C(=O)N[C@@H](C)C(=O)N[C@@H](CC(=O)O)C(=O)O (some centres unmarked)", "target": "trypsin", "test": "LC-MS", "setting": "40 µM, 60 min, pH 7.5, 37 °C", "how to read": "relative to: 0 h", "measurement": "remaining intact peptide", "result": "79.9%"}
{"SMILES": "O=C(CN1C(=O)C2(CCN(C(=O)c3cnc4[nH]ncc4c3)CC2)c2c(F)cccc21)NCC(F)(F)F", "target": "CYP3A4", "test": "enzyme activity, inhibitor", "measurement": "IC50", "result": "> 50 µM"}
{"SMILES": "CC(C)C[C@H](NC(=O)[C@H](CC(C)C)NC(=O)[C@H](CCCCN)NC(=O)[C@H](Cc1ccccc1)NC(=O)[C@@H](NC(=O)[C@H](CCCNC(=N)N)NC(=O)[C@@H](N)CCCCN)C(C)C)C(=O)N[C@@H](CCCCN)C(=O)N[C@@H](CCCNC(=N)N)C(=O)N[C@@H](Cc1ccc(O)cc1)C(=O)N[C@@H](Cc1c[nH]c2ccccc12)C(=O)N[C@@H](CCCNC(=N)N)C(=O)N[C@@H](CCC(N)=O)C(=O)N[C@@H](CC(C)C)C(=O)N[C@@H](CCCCN)C(=O)N[C@@H](CCCCN)C(=O)N1CCC[C@H]1C(=O)N[C@H](C(=O)N[C@@H](CCCNC(=N)N)C(=O)NCCOCCOCC(=O)O)C(C)C", "target": "Chymotrypsinogen A (Bos taurus, UniProt P00766)", "test": "HPLC", "setting": "1 mg/mL, 30 min, 37 °C, added: enzyme to peptide 50:1", "measurement": "degradation", "result": "11 to 15%"}
{"SMILES": "CCCCCn1ccc(C(=O)NC(C)(C)c2ccc(CNC(C)=O)cc2)n1", "target": "CYP1A2 human", "test": "RT-qPCR, refers to: CYP1A2 mRNA", "test system": "HepaRG", "setting": "concentration not given", "how to read": "relative to: positive control", "measurement": "CYP induction", "result": "< 10%"}
{"SMILES": "CC(CCC(=O)NCC(=O)O)C1CCC2C3CCC4CC(OC5OC(C(=O)O)C(O)C(O)C5O)CCC4(C)C3CC(O)C12C (centres unmarked)", "target": "ABCC4 (Homo sapiens, UniProt O15439)", "test": "substrate, membrane vesicle uptake", "setting": "0.2 µM, 10 min", "how to read": "relative to: ATP over AMP", "measurement": "vesicle uptake ratio", "result": "3.9 ± 0.4"}
{"SMILES": "CNC(=O)C1OC(n2cnc3c(NCc4cccc(I)c4)ncnc32)C(O)C1O (centres unmarked)", "target": "ABCG2", "test": "transport, inhibitor", "setting": "100 µM, 5 (unit not given), pH 7, added: CCK-8", "measurement": "inhibition", "result": "48.8%"}
{"SMILES": "CC(=O)NCCCC[C@@H]1NC(=O)[C@H](Cc2c[nH]c3c(C)cccc23)NC(=O)[C@H]([C@@H](C)O)NC(=O)[C@H](CC(N)=O)NC(=O)[C@@H](NC(C)=O)C(C)(C)SSC(C)(C)[C@@H](C(=O)N[C@@H](Cc2ccc(OCCN)cc2)C(=O)N[C@@H](Cc2ccc3ccccc3c2)C(=O)NC2(C(=O)N[C@@H](CCC(=O)O)C(=O)N[C@@H](CC(N)=O)C(=O)N[C@@H](Cc3cccnc3)C(=O)N(C)CC(N)=O)CCOCC2)NC1=O", "target": "ABCG2", "test": "transport, inhibitor", "test system": "LLC-PK1 expressing ABCG2", "setting": "2.04 µM, 90 min, added: [3H]prazosin", "measurement": "efflux ratio", "result": 10.9}
{"SMILES": "CSc1nc2[nH]nc([N+](=O)[O-])c(=O)n2n1", "target": "ABCG2", "test": "transport, inhibitor", "setting": "100 µM, 5 (unit not given), pH 7, added: CCK-8", "measurement": "inhibition", "result": "23.6%"}
{"SMILES": "O=C(O)c1ccc(-c2nc(-c3ccccc3Cl)c3sccn23)cc1", "target": "Cav1.2 calcium channel", "test": "radioligand binding", "setting": "10 µM", "how to read": "relative to: control", "measurement": "specific binding", "result": "104%"}
